Assay results gathered from unrelated publications.
Numbered parts are unrelated; each lists some results of a single study. Changes are numbered by the printed parent chain.

Study 1
Target: RING finger protein unkempt homolog, zinc fingers 1-6, GST-SBP tag (UNK, Homo sapiens, UniProt Q9C0B0, residues 30-357)
Sequence of UniProt Q9C0B0 (30-357, looked up): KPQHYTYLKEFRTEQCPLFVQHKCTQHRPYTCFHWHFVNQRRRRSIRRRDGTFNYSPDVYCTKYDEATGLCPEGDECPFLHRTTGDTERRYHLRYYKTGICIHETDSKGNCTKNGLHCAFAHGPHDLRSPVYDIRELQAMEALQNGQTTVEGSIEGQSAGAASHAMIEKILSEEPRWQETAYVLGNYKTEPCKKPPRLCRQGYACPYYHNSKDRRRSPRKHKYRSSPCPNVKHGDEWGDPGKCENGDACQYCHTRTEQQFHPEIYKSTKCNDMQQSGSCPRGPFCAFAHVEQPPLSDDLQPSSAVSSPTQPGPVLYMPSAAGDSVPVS
Technique: RNA Bind-n-Seq
Form: RNA
Matrix: in vitro
Concentration: not given
Notes: RNA with constant flanks, human and mouse sites, ends assumed
Baseline: input RNA pool
Direction: higher = stronger binding
Measurement: bound/input enrichment
All sequences stand within: GGGAGUUCUACAGUCCGACGAUC … CAACAGAGGAUUGAGCAUCA
GAGAAGCGCGCUUCAGGCCAGGCUUUUGAGCUGAUUCUCAGCCCUCGGUCAAAAGAAUCUGUCCCCGAUUUCCCCCUUUCCCCCCCAAAGAAGAAGGACCUUUCCCUGGAGGAAAUCCAG: 0.386 ratio
UCUAUUGUAUGGAAACAGCUACUUCCCCUUGCUCCACUUACCUUCAAACUGCCAGCCACUUGGCUAUUAUUUGUUCUAUUUAGUACCUCCUGGGUUGGUUUUUAACCAUAAUUACAUUUC: 0.493 ratio
CUCAUUUUUGACUUGGGAGGUGGCACUUUUGAUGUGUCAAUCCUCACUAUUGAGGAUGGAAUUUUUGAGGUCAAAUCAACAGCUGGAGACACCCACUUAGGUGGAGAAGAUUUUGACAAC: 1.13 ratio
CUUAAAAUUAAUUUUCAUGGUUCCAAGUCAUCAGAUUCUAGUGAAGUUCACAAGAGUAAAAUAGAAAUUAAUGUGUUAGAACCAGUUAUGUCACAGCUAUCAAAUUGCCAAGAUAAUUCU: 1.57 ratio
GACCCCCACUCCCUGUGAGAGGGAAUGGGGGAAGCCUGAUGACCCUCAGCUGUUCCAAUCUAGUAUUUUUUUUCUUUUUUAAAAUUACUGUAUUUAUUAUGACGAUGGUGACUCCCCAGU: 12.2 ratio
UGGAACUGGGGAGGGGGCUUCCUGUUGGAGCCAGGGCCAGGGGCUCCUUGGUGUAAUCUGUGUCGCCAGGUUCCCACCUCUCUCCUUUUCUAAAAGCCAAAGCCACUAUCUCCAAUAAAA: 0.17 ratio
AUUAUUGCAUGCAUAGAAAGCCAUCAGUUCCAAGCAAAAAAUUUUUGCUGCUGUUUUUAUUUUUAAGGAAUGGUCGUUGGAGGUCAGAAUGGAAGUUUACAAUCACUCCUUCAACCACUC: 0.342 ratio
AUGAUAAUUGUUGGAGUCAGCAUUUUAUGUAUUCCAUUUGCAAAAAACAUUUAUGGACUCAUAGCUCCGAACUUUGGAGUUGGUUUUGCAAUUGGAAUGGUGGAUUCGUCAAUGAUGCCU: 0.102 ratio
UUUGAAGAAGGUGAAGAAACAAUUACAGCCUUUGUAGAACCUUUUGUAAUUUUACUCAUAUUAGUAGCCAAUGCAAUUGUGGGUGUAUGGCAGGAAAGAAAUGCUGAAAAUGCCAUCGAA: 1.49 ratio
AAUUUGGCGAAAAUUCUUAAGAGGCAUCCAGGUUUAAGAAACAUUCUGCCUAUAACUACUGCCAAAGUGCCUAUUGUAAAAUUUGAACACAGGAGAAGUGGACUAGAAGGUGAUAUCAGU: 0.386 ratio
GUACUUGCUGUAGGAUACAAGCUGUCUUUGCACUAGCUCUAAAGAAGAAUUUCUUCUGGUUUUAGAGAACUGAUUUUGUUUUAGCAUUAAACUGUUCAAGUUUUUGUACGUAGAUAUCUA: 5.64 ratio

Study 2
Target: ABI1, truncated, D143A, DHFR fusion (Arabidopsis thaliana)
Technique: DHFR PCA, deep sequencing
Matrix: yeast
Notes: methotrexate growth selection, single substitutions
With: (+)-ABA 2500 µM
Baseline: wild-type fitted maximum
Direction: higher = stronger binding
Measurement: relative binding score
Parent: PYL1, truncated, DHFR fusion (Arabidopsis thaliana); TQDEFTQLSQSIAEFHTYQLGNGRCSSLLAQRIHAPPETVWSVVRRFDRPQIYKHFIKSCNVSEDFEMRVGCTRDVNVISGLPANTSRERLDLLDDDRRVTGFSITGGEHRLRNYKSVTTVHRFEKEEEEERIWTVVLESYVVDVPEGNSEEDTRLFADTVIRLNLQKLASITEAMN
T106Y: 108%
F15Y: 96.2%
C60R: 37.9%
E67G: 92.8%
N149G: 82%
T106S: 97%
G102M: 89.2%
H122N: 94.1%
R45Q: 79.8%
V161N: 45.7%
N61C: 95.4%
W134C: 102%
D95I: 86.6%
G71Q: 81.1%
R24F: 95.5%

Study 3
Target: CCND3, cyclin fold, Cln2 fusion (human)
Technique: yeast growth competition, sequencing
Matrix: yeast
Notes: weak parent motif
Baseline: not given
Direction: higher = stronger binding
Measurement: normalised enrichment score
Parent: CDKN1B docking peptide (human); PSACRNLFGPVDH; partner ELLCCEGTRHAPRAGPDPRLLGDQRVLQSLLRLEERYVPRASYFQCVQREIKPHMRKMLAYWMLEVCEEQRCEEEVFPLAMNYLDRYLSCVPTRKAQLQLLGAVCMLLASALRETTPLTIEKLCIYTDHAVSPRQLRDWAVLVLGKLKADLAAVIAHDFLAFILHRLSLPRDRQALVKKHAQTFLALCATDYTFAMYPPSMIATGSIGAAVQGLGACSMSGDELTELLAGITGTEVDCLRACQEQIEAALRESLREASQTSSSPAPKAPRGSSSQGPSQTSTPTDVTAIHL
PSACRNMFGPVDH [L7M]: 0.138
PSAIRNLFGPVDH [C4I]: 0.135
PSACRTLFGPVDH [N6T]: 0.125
PSACRNLFGPCDH [V11C]: 0.069
PDACRNLFGPVDH [S2D]: 0.0535
PSACRNLFGIVDH [P10I]: 0.117
KSACRNLFGPVDH [P1K]: 0.195
ASACRNLFGPVDH [P1A]: 0.165
PSACRNLFGPVDN [H13N]: 0.162
PSACRNLFGPVDK [H13K]: 0.126
PSACENLFGPVDH [R5E]: 0.151
PSAHRNLFGPVDH [C4H]: 0.132
PSATRNLFGPVDH [C4T]: 0.0887
PSACRNLFDPVDH [G9D]: 0.18
MSACRNLFGPVDH [P1M]: 0.115
RSACRNLFGPVDH [P1R]: 0.124
PSAKRNLFGPVDH [C4K]: 0.0649

Study 4
Target: RNA binding protein fox-1 homolog 2, RRM domain, GST-SBP tag (RBFOX2, Homo sapiens, UniProt O43251-10, residues 100-194)
Technique: RNA Bind-n-Seq
Form: RNA
Matrix: in vitro
Concentration: 365 nM
Notes: natural RNA segment, single round, ends assumed
Baseline: no-protein control
Direction: higher = stronger binding
Measurement: RBNS enrichment (R)
All sequences stand within: GGGAGUUCUACAGUCCGACGAUC … UGGAAUUCUCGGGUGCCAA
Construct (chain): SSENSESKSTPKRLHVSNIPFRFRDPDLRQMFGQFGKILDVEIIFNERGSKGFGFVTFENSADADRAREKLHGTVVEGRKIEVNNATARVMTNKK
GACACUGGGCCUUAUAUGCUCUUUUAAAACUUCAAGGUCCACCCCCAGUAAUGCACUUCCUUCAAAAGACCCCACCUCCUAAUCCUUGUAAUCUUCCUCAAACCAGUUCU: 1.04
AAGAGACUUCUGACCUUGCUUCCCAACAGCUAAAGGGCUAACUGUCUUUAUGGAAGGCACUUGUUACAGUAUUUGCCCAUUGUACAGAGCAAUGCUACAUUGUUGUAAAA: 0.386
UCAGUCUUUCCUUUGAAAAUCCAUAUAAAGUACAACUUUUAGCGUGAUUAUUUUCCUAAAUACAAAGACAAAUAAUUUACUUAUUUUAUGUUAAUUACGGGCAUGAAGCA: 0.677
GCGGAAUUUGGUACUCAUUACCGUAUUCGCCGUACUAAGUUGGUUUCUGUUAGUCUUAACAGUCUGUUUUCUUUUAAAAGCAUGUAGGGCUUCAUUGCCAUGUUCUGUGG: 0.41
CUAUCUGCUGCUUCUUAGGUUGCUGUUGUACAUGGAACCAGGACUAGAGAUUUUUUCAGAUUUAUAGACUUAAAAAAUUAGAAUUUUAUUACCAGGCUUUCCUUCUCACC: 0.673
GUUUUUGUUGUUUGUUUUGUUAUUUUUUAACUAAUAAGUUGGUUAUCAGUGGUGGGUUUUCAAAAUGUACUUGUUCUAAUAAGUUGUACAAUGAACUAAAUCAGUGGCAU: 0.546
CCGCCUUCGAGCCUGCAGGAACUAGAACAAGACUAUGGGGAAUCCUUUCUAGUUGCCAUGGAAAAGCUGUUGUUUGAAUACUUGUGUCAGCUAGAGAAAGCACUGCCUCC: 1.44
CUUCUUAAAGCCCAGAGAAAGAGGUUUUUUAAAAGACUGUCGCCAAAUAGCUGAGCCAAAAGGCUGAUCAGAAUUCACUUUUUGGAAUGUGGCAGUUAAACACUACCUUG: 0.429
CGGUUUUCCAUAGGCAUUAAAGUGCUGAAUGCUCAGUCUGAUCAACAAGUGGGCACCUGCACUACCACUUUUUAGAGGAAAUUCACUCCCUCGUAAGCAUUGGAAGGUCA: 0.343
UGGGUAGAGCCGUGCCUCUUGGGCAGGCUCCCAUAGUGACCACGUCCCCACGAAUGGGAAAGCACGUUAGUGGGAGGGACGUAGGACACGUGUGGACCGCCAGGCCCUCU: 0.601
CUCUCCCCUUUUACCAUGACCUUGACACAUGAGCACAUGAAGGAAGGUAGCCAGGGGGCAUUUGCUGUCCAAAAAAAUGUUAUGAGCAGAAGAGAUUUUUACAGUAACAU: 0.349
UCACUUAAAAGCUGACAGCCCUCAUCUGUCUCAUUGGCUACAUAAGAGCUGCAGAAGAUCCAUCAAUAACCAAGUAUAAAGAAAGAUUUUAAGACUAAGUACCAAUUGAG: 0.321

Study 5
Molecule: PhoQ, residues 284 288 289 292 302 303 SCKMEA
Technique: Sort-seq
Measured: YFP reporter
Matrix: E. coli
Notes: PhoQ-PhoP variant library
With: 10 µM Mg2+
Baseline: high Mg2+ state
Direction: higher = stronger signaling
Measurement: fold induction
PhoP, residues 12 14 15 18 19 VGHWL (Escherichia coli, UniProt P23836): 17.1
PhoP, residues 12 14 15 18 19 TPWTL (Escherichia coli, UniProt P23836): 17.4
PhoP, residues 12 14 15 18 19 NFFVT (Escherichia coli, UniProt P23836): 28.2

Excerpt of the above (study 2):
F15Y: 96.2%
C60R: 37.9%
E67G: 92.8%
N149G: 82%
T106S: 97%
G102M: 89.2%
H122N: 94.1%
R45Q: 79.8%
V161N: 45.7%
N61C: 95.4%
